Published values gathered from unrelated publications.
Lines come from different studies, so protocols differ. ± gives the spread as reported.
RIGI: RIGI 2-925 (Homo sapiens, UniProt O95786)
UniProt O95786, sequence (whole entry, looked up): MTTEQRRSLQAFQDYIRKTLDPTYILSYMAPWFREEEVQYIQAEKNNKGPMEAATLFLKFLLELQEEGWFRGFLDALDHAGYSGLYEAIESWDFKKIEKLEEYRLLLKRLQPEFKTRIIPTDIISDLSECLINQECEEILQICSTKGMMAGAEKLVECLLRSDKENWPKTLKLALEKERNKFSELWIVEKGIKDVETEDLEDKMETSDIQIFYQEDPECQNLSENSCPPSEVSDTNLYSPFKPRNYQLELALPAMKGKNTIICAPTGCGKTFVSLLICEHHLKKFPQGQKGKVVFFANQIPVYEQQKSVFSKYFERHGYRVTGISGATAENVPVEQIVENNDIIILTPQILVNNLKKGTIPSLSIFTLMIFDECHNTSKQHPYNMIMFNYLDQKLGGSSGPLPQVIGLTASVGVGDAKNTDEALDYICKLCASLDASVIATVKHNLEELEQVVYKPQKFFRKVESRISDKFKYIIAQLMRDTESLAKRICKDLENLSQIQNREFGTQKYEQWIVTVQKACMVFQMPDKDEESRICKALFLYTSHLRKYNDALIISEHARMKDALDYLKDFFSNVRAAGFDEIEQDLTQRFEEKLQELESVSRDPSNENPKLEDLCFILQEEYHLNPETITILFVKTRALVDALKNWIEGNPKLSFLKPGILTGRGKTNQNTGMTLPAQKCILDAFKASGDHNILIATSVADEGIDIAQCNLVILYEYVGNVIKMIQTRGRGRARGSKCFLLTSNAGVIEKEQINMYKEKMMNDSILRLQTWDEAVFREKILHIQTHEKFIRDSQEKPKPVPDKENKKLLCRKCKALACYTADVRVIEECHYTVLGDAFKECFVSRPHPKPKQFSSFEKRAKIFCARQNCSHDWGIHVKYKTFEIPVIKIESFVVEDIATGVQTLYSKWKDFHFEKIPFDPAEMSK
TFAM 43-221 del222-246: TFAM 43-221 del222-246 (Homo sapiens, UniProt Q00059)
UniProt Q00059, sequence (whole entry, unmodified, looked up): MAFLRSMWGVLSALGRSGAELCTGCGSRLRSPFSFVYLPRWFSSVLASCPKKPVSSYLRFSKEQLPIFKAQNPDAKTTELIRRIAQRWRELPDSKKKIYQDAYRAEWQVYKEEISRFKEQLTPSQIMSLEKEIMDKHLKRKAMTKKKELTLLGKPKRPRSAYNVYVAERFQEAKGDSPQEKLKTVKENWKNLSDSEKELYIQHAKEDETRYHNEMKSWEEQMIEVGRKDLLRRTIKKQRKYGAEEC
T1: NAB3/NRD1 NAB3 191-565; NRD1 1-548 (Saccharomyces cerevisiae); chain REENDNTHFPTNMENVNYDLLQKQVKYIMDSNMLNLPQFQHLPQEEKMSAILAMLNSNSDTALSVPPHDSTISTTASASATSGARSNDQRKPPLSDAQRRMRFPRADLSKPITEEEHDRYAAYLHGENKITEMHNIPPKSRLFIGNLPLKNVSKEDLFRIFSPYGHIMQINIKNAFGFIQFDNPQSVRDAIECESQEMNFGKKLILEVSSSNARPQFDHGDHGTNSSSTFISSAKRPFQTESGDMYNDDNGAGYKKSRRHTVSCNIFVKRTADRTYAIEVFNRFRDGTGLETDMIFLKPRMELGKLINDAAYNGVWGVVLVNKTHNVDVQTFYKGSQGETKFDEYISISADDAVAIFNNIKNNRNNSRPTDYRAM; chain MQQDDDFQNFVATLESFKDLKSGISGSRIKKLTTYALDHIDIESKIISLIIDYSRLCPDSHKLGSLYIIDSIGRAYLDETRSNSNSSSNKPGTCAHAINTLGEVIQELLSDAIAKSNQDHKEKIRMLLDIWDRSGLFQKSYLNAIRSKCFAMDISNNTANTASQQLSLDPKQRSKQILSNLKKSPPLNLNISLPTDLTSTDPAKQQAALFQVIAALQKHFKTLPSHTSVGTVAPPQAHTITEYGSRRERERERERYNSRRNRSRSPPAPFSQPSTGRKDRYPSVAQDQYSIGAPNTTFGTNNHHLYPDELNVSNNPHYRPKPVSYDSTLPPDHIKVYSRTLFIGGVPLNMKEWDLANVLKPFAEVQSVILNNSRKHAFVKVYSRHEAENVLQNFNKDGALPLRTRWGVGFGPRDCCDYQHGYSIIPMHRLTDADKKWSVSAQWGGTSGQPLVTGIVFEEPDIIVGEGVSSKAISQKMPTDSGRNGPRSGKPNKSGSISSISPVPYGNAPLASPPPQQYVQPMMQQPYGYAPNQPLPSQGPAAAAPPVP
UniProt Q9ES57, sequence (whole entry, looked up): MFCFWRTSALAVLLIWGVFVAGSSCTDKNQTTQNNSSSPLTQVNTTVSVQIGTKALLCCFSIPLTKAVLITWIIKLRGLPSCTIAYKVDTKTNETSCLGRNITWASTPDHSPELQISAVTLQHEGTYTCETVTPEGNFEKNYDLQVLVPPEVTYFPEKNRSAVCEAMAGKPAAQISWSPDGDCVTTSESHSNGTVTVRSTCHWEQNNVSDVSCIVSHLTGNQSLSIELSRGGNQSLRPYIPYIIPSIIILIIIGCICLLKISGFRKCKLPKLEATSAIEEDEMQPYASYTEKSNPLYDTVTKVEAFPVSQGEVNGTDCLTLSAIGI
UniProt O00411, sequence (whole entry, looked up): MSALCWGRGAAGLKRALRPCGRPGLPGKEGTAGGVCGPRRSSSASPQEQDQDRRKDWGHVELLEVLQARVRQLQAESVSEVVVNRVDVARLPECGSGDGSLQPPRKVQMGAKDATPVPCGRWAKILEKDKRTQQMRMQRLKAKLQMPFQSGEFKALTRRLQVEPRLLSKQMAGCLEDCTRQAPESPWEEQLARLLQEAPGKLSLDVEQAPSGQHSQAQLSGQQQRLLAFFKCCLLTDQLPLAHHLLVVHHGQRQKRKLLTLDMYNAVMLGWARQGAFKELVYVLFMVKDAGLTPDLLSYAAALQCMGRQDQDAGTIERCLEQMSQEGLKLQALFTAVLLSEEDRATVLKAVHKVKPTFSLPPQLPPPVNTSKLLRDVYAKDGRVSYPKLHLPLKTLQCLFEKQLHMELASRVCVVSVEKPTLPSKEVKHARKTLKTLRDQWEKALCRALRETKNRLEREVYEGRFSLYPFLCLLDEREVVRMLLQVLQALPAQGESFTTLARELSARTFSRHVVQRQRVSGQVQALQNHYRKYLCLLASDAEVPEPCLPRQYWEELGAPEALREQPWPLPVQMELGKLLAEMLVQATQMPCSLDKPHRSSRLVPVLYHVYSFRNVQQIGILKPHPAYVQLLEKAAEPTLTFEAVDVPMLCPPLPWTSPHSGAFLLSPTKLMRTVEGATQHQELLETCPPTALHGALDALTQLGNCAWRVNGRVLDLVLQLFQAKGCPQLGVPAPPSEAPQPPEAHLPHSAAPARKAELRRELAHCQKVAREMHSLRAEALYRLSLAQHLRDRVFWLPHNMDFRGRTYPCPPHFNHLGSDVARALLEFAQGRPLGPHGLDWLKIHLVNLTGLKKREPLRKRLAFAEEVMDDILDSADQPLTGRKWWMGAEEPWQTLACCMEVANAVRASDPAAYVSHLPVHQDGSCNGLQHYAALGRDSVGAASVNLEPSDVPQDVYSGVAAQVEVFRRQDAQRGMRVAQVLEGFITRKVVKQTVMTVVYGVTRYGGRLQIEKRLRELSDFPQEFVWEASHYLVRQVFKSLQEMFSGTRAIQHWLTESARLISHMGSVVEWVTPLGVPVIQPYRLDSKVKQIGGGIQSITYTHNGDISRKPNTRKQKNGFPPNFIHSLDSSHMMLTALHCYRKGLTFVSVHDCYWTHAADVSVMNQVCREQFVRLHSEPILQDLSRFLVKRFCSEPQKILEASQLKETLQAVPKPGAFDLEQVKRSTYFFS
UniProt Q57977, sequence (whole entry, looked up): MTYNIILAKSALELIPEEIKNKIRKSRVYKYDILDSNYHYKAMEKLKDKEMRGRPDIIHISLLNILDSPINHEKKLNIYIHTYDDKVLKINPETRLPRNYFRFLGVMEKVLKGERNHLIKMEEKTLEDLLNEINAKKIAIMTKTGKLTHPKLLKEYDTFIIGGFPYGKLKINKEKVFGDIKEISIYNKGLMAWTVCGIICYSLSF
UniProt P35222, sequence (whole entry, looked up): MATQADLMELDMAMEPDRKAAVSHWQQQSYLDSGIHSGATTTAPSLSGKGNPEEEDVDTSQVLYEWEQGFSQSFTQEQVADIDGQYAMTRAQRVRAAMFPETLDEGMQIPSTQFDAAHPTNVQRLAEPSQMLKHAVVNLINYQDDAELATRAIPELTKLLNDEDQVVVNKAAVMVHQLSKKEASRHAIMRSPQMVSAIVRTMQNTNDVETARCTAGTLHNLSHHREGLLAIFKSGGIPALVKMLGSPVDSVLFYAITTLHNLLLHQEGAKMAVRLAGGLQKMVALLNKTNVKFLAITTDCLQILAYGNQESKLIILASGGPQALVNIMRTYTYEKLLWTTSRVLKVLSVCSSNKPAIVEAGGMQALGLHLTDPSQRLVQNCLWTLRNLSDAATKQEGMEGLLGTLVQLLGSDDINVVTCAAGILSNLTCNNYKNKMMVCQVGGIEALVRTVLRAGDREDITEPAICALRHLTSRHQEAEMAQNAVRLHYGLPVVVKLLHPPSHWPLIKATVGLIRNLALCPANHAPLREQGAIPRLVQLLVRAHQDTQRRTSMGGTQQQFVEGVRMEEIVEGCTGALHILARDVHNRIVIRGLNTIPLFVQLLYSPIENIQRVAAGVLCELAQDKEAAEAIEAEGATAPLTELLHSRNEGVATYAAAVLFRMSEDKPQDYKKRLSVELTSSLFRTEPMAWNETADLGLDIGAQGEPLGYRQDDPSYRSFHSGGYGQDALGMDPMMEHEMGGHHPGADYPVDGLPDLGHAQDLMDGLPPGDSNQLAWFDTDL

Oligonucleotide	target	assay	system	setting	Kd [nM]
TAACAGTCACCCCCCAACTAAC (dsDNA)	TFAM 43-246 (Homo sapiens, UniProt Q00059)	EMSA	double-stranded DNA, one strand shown	apparent	9.2 ± 0.98
CGGGATATCCCG (dsDNA)	Tardbp 101-265 (Mus musculus, UniProt Q921F2)	filter binding	double-stranded DNA, one strand shown	–	1320
GGGACGCGUGGUACCAGGCCGAUCUAUGGACGCUAUAGGCACACCGGAUACUUUAACGAUUGGCUAAGCUUCCGCGGGGAUC (structured RNA; stem-loops, bulges, tri-bridged)	CTNNB1 1-781 (Homo sapiens, UniProt P35222)	SPR	folded RNA	–	25.6
RNA 1 GCAUGCGACCUCUGUUUGA / RNA 2 UCAAACAGAGGUCGCAUGC (dsRNA; 5'-OH, duplex, 19 bp)	RIGI	MST	double-stranded RNA	with: ADP-AlFx	11 ± 8
GACGATAGCGGTGACGGCACAGACGGACGTGACATGCTTGACCAACTCGCCGTATGCCGCTTCCGTCCGTCGCTC (ssDNA)	Cd200r1 26-238 (Mus musculus, UniProt Q9ES57)	nitrocellulose filter binding	single-stranded DNA	with: Mg2+ 1 mM	390 ± 86
GGACGUACGUUUCGACGUACGUCC (structured RNA; 5'-OH, hairpin, 10 bp)	RIGI	MST	folded RNA	with: AMP-CP 0.4 mM; MgCl2.5 mM	12.3 ± 3.2
GTGTTAGTTGGGGGGTGACTGTTAA (dsDNA; 25 bp duplex)	TFAM 43-221 del222-246	FRET	double-stranded DNA, one strand shown	apparent, cooperative Hill model	9.8 ± 0.8
RNA 1 GCAUGCGACCUCUGUUUGA / RNA 2 UCAAACAGAGGUCGCAUGC (dsRNA; 5'-triphosphate, duplex, 19 bp)	RIGI	MST	double-stranded RNA	no nucleotide	1.3 ± 0.5
AGCAGGAGCAGGAACAGGATGAACA (dsDNA; 25 bp duplex)	TFAM 43-221 del222-246	FRET	double-stranded DNA, one strand shown	apparent, cooperative Hill model	8.1 ± 1.7
AAUCUUAGUAAUC (ssRNA)	T1, NAB3/NRD1 NAB3 191-565; NRD1 1-548 (Saccharomyces cerevisiae)	fluorescence anisotropy	RNA	–	5.3 ± 0.6
TGTGTTAGTTGGGGGGTGACTGTTAAAAGTGCATACCGCCAAAAGATAAAA (dsDNA)	POLRMT 43-1230 (Homo sapiens, UniProt O00411)	fluorescence anisotropy	double-stranded DNA, one strand shown	Hill fit	10.5
GGACGUACGUUUCGACGUACGUCC (structured RNA; 5'-triphosphate, hairpin, 10 bp)	RIGI	MST	folded RNA	with: AMP-CP 0.4 mM; MgCl2.5 mM	2.5 ± 1.3
UUUUUUUU (ssRNA)	nep1 1-205 (Methanocaldococcus jannaschii, UniProt Q57977)	fluorescence quenching	RNA	–	25600 ± 5100
